Published values of several laboratories.
A part holds a random share of what one study measured. Substitutions count along the parent as printed.
Sequence of UniProt O15294 (whole entry, looked up): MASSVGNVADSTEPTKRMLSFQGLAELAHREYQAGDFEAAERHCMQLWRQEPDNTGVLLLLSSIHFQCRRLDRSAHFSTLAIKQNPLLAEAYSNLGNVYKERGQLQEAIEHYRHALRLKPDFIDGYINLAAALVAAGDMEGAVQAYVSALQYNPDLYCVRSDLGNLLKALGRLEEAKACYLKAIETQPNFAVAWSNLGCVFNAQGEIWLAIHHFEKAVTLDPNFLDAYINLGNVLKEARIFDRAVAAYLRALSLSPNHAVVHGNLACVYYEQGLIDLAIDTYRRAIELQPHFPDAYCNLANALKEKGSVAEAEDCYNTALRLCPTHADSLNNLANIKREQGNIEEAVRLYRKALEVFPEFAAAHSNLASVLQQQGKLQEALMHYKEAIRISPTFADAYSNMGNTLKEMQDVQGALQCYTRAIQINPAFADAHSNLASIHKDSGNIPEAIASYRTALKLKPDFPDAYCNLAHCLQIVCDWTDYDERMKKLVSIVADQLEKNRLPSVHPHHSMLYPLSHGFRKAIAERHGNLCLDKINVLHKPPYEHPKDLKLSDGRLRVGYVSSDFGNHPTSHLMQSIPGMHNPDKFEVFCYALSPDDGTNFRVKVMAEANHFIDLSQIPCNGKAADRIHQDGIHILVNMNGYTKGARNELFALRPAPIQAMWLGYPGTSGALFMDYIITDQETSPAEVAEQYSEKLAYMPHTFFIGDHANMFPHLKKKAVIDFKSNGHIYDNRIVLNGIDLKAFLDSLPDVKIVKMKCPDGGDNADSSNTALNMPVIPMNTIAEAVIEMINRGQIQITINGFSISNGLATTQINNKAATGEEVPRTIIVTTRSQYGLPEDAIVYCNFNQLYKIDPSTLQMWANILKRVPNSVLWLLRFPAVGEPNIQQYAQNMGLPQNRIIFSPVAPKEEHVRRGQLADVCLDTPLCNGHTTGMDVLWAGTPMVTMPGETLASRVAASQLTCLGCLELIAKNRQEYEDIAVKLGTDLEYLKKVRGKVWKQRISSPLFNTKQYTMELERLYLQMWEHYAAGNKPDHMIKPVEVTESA
Sequence of UniProt O75526 (1-110, looked up): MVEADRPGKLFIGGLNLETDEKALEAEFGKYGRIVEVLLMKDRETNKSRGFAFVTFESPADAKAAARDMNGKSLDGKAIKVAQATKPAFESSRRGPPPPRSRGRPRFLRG

Set 1 — technique: protein-binding microarray; molecule type: double-stranded DNA, one strand shown; matrix: in vitro; concentration: 0.8 µM; setting: whole 60-bp probe, no competitor; reading: higher = stronger binding; shared flanks, not repeated: … GTCTTGATTCGCTTGACGCTGCTG
Target: Centromere-binding protein 1, full length, N-terminal tag (CBF1, Saccharomyces cerevisiae, UniProt P17106, residues 1-351)
Sequence of UniProt P17106 (whole entry, looked up): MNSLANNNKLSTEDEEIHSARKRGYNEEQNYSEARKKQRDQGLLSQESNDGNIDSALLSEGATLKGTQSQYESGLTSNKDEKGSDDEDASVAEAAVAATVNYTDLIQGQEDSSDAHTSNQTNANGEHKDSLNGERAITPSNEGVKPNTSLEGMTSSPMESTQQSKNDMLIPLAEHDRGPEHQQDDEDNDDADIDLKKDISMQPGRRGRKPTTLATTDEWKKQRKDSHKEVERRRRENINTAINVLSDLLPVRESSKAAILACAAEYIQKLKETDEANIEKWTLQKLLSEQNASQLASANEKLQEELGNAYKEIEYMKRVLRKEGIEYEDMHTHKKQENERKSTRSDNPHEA
Strand	fluorescence intensity [a.u.]
CTAACTACTAATAATCACGTGATATTTCTTTTCTTC	33600
GAAAAGGTGTCACGTGATCAGATGGTCTTTTTTTAG	43300
CTATAAGCGATTAGCCACACCACCCACTGTACGTTC	574
CTATCGTAACCTCGTTCCATGTGACATTCTTTTTTC	2500
CTAGCGGAAGAGAAGCACGAGACACGGGTCACTTTC	1070
GAATGCCACCAGATTTTGGTGATGAAAAATTGTTAG	518
GAATTGTACTTGTTTCATCAGATTCTTACATCATAG	513
GAAAAACCTTTCCCTCATGATCTCCTAATTTGATAG	564

Set 2 — technique: RNA Bind-n-Seq; molecule type: RNA; matrix: in vitro; concentration: 1 µM; setting: whole 134-nt RNA, ends assumed; together with: 150 mM KCl; baseline: input library; reading: higher = stronger binding
Target: Ras GTPase-activating protein-binding protein 1, RRM domain (G3BP1, Homo sapiens, UniProt Q13283)
Sequence of UniProt Q13283 (whole entry, looked up): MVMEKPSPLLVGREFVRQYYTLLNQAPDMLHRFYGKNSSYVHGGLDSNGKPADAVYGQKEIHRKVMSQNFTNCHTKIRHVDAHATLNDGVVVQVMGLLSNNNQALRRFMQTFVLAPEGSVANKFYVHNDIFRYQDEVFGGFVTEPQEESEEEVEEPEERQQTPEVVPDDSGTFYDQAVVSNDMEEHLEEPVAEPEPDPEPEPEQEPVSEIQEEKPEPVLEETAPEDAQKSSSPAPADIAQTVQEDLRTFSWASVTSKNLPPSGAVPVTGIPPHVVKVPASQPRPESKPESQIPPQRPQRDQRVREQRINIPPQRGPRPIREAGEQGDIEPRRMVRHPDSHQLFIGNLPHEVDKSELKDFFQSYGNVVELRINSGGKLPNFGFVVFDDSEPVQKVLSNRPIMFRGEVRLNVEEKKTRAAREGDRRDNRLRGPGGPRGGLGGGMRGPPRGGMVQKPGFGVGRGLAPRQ
Shared flanks, not repeated: GGGAGUUCUACAGUCCGACGAUC … UGGAAUUCUCGGGUGUCAAGG
Strand	log2 enrichment
ACCAUGCAGGGGGGCAUCUUUGGGAAGUGGGGCAAGGGGGGGAUAGGGAGGGGGGUAACACUUUGGGAACAGGUGGUCCCAGGUCGUUUC	-0.245
AGUCCUGUGCUACACAUCGUAUGUACCGAAUCGGGGAAAAGGAAAAGGGAAAAGGGGAAAGUAUUAUGUUACGCCGUUCGGAUCUGCACU	-0.176
UGGAGCUGAAGAGCCAAGAGGCUCCGAGUCUGCAGCAGCAGCCAGACCAGUACCUGGAGCCCCAGUCCCACAAGGAGCUUGGAUGUGCGG	-0.371
AAGUCCUGUGCUACACAUCGUAUGUACCGAAUCAAAUUUUUAAAUUUAAAUUUAAAAAAGUAUUAUGUUACGCCGUUCGGAUCUGCACUU	-0.575
CACAGACAACACGCACCCACACAGACACAGAGGGAAGGGGUUGGGAUGGGGACAGGGUGCACAGCAGGGCGGGGUAGGACCUCAGCCCCU	-0.358
CAUAGACAACACGCACCCACACAGACACAGAGGGAAGGGGUUGGGAUGGGGACAGGGUGCACAGCAGGGCGGGGUAGGACCCCAGCCCCU	-0.177
UGGCCCUGGUGGCAUGCGGGGAGGAAGAGGUGGCCUCAUGGAUCGUGGUGGACCCGGUGGAAUGUUCAGAGGUGGCCGUGGUGGAGACAG	0.754
GUCCUGUGCUACACAUCGUAUGUACCGAAUCGGGGUUUUUGGGUUUUUGGUUUUUGGGAAAGUAUUAUGUUACGCCGUUCGGAUCUGCAC	-0.268

Other studies, line by line
P1: PafA, mature enzyme, eGFP fusion (Elizabethkingia meningoseptica, UniProt Q9KJX5); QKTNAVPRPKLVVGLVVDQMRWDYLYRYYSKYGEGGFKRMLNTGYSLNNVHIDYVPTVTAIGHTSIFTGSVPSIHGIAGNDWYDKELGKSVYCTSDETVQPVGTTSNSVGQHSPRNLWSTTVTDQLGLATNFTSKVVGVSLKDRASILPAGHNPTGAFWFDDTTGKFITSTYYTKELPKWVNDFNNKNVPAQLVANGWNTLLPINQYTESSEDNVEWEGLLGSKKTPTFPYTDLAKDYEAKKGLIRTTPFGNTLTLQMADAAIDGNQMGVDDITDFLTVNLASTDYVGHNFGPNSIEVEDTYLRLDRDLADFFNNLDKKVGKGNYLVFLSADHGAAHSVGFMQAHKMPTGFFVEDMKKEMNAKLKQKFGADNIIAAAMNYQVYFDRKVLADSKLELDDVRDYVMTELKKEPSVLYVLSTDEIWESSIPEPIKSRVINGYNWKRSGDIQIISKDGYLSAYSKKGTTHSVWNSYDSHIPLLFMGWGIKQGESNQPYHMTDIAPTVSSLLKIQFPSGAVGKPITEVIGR
Substance	target	test	test system	conditions	how to read	quantity	value
P1 N324V	inorganic phosphate, free oxyanion	microfluidic competitive inhibition	in vitro, cell-free expressed	not given, derived from inhibition constants, unchanged parent 615000 nM	lower = stronger binding	phosphate dissociation constant	529 µM
TWRVHYPFHTHNYEI	UDP-N-acetylglucosamine--peptide N-acetylglucosaminyltransferase 110 kDa subunit (OGT, Homo sapiens, UniProt O15294)	phage display binding, phage display panning NGS	peptide	–	baseline: OGT-panned over input library	log2 fold enrichment	3.7
AAAAAAAA (biotin)	RNA-binding motif protein, X-linked-like-2, RRM domain (RBMXL2, Homo sapiens, UniProt O75526, residues 1-110)	protein domain microarray	RNA, in vitro	not given, poly(A) 8-mer RNA, whole probe, immobilized GST-fusion domains, most near background	baseline: GST loading signal, higher = stronger binding	signal ratio	4.54

Some of these lines once more (set 2):
Strand	log2 enrichment
AAGUCCUGUGCUACACAUCGUAUGUACCGAAUCAAAUUUUUAAAUUUAAAUUUAAAAAAGUAUUAUGUUACGCCGUUCGGAUCUGCACUU	-0.575
